Experimental data from different studies.
Protocols differ between the studies behind these lines. ± marks the error that the study gave.

SMILES	test	test system	conditions	how to read	measurement	result
CCC(=O)N(CCC(c1ccc2c(c1)OCO2)c1ccccc1OC)Cc1ccccc1 (stereo not drawn)		female athymic nude mouse, blood	i.p., 60 mg/kg twice daily, 14 days, group mean		ALP	99 U/L
Cc1ccc([C@@H]2O[C@H](CO)[C@@H](O)[C@H](O)[C@H]2O)cc1Cc1ccc(-c2ccc(F)cc2)s1	measured: inorganic phosphorus	Japanese type 2 diabetes patients	200 mg, day 15, 24 h urine collection	relative to: baseline	urinary phosphate excretion change	18.1 mg
C=CC(=O)NC1CCN(c2ncc3ncnc(Nc4ccc(Oc5ccc6c(c5)ncn6C)c(C)c4)c3n2)CC1		human, male	oral, 240 mg, treatment-related adverse event		participants with fatigue	6.3%
CN(C(=O)n1cnc(-c2cccnc2)c1)C1CCCCC1		Wistar rat, medulla oblongata	oral, 10 mg/kg/day of BIA 10-2474, 72 h, repeated 5 days		concentration	7.2 ± 0.1 ng/g
NC1(C(=O)N[C@@H](CCO)c2ccc(Cl)cc2)CCN(c2nc[nH]c3nccc2-3)CC1		metastatic CRPC patients	320 mg b.i.d., any grade, treatment-related, with: enzalutamide 160 mg daily		incidence of lower abdominal pain	0%
C[C@@H](c1ncncc1F)[C@](O)(Cn1cncn1)c1ccc(F)cc1F	measured: blurred vision	human	oral, 200 mg		drug-related TEAE incidence	0%
N#C[C@@]1(c2ccc3c(N)ncnn23)O[C@H](CO)[C@@H](O)[C@H]1O	plasma protein binding	rat plasma	100 µM, time not given		recovery	97.4%
O=C(O)CCCOc1ccc([18F])cc1-c1cc(-c2ccccc2C(F)(F)F)n(-c2ccccc2)n1	dynamic PET	healthy male C57BL/6J mice, myocardium	intravenous, isoflurane anaesthesia		SUVmax	6 ± 0.3
Cn1cc(Nc2nccc(-c3ccc4c(c3)CN(C3COC3)CC[C@H]4NC(=O)c3cn(C(C)(C)C)nn3)n2)cn1		human, whole blood	150 mg twice daily, day 7	relative to: pre-dose baseline	granulocyte count change	3.78%
CCN1CCN(Cc2ccc(Nc3ncc(F)c(-c4cc(F)c5nc6n(c5c4)[C@H](C)CCC6)n3)nc2)CC1		human, phase Ia	50 to 500 mg, single dose		Tmax	4 to 17 h
CN[C@@H]1COc2c(S(=O)(=O)NC(=O)Nc3c4c(cc5c3CCC5)CCC4)cnn2C1		human, urine	oral, 900 mg, 0-48 h		renal clearance	8.97 mL/min
C=CC(=O)Nc1cc(Nc2nccc(-c3cn(C)c4ccccc34)n2)c(OC)cc1N(C)CCN(C)C		human patients, plasma	dose not given, Q1 exposure quartile, with chemotherapy		AUC at steady state	2.35 to 8.87 µM·h
COc1ccc2nc([S@@+]([O-])Cc3ncc(C)c(OC)c3C)[nH]c2c1		human, dried blood spots	10 mg omeprazole, median, with: voriconazole	relative to: with voriconazole over alone	AUC ratio	3.4
OCC1=C[C@@H](O)[C@@H]2C=CO[C@@H](O[C@@H]3O[C@H](CO)[C@@H](O)[C@H](O)[C@H]3O)[C@H]12		rat plasma	1000 ng/mL, 2 weeks, -70 °C, post-preparative stability		accuracy	85.2%
CNC(=O)c1ccc(-c2cnc3ncc(Cc4ccc5ncccc5c4)n3n2)cc1F	measured: Dyspnea, all grades	gastric cancer patients	oral, 600 mg twice daily, expansion cohort, any causality		patients with adverse event	11%
Cc1c(-c2ccc(N3CCc4cccc(C(=O)Nc5nc6ccccc6s5)c4C3)nc2C(=O)O)cnn1CC12CC3(C)CC(C)(C1)CC(OCCNCC[C@H](O)CO)(C3)C2		beagle dog, male, anaesthetised	intravenous infusion, 0.3 mg/kg/min, 105 min	relative to: vehicle	dP/dt at 50 change	-33%
COc1cc(C(=O)NC2CCN(C)CC2)c(F)cc1Nc1ncc(C(F)(F)F)c(Oc2cccc3c2C(=O)N(C)C3)n1		human patients, urine and plasma	oral, 10 mg single dose, geometric mean		renal clearance (0-24 h)	17.5 mL/min
O=C(c1cccnc1-c1ccncc1)N1CCC(O)(Cc2ccccc2)CC1		healthy Japanese adults, plasma	oral, 200 mg twice daily, day 14		Cmax/dose	4.9 ng/mL/mg
CNCCOC12CC3(C)CC(C)(CC(Cn4ncc(-c5ccc(N6CCc7cccc(C(=O)Nc8nc9ccccc9s8)c7C6)nc5C(=O)O)c4C)(C3)C1)C2		anaesthetised male beagle dogs	intravenous bolus, 0.03 mg/kg, 45 min	relative to: baseline	cardiac output change	-14%
Cc1noc(C)c1-c1cc(C(O)(c2ccccn2)c2ccccn2)c2nc(C3CC3)[nH]c2c1		human patients, plasma	oral, 2 mg, cycle 1 day 8, monotherapy		Ctau	34.4 ng/mL

SMILES	test	test system	conditions	how to read	measurement	result
COc1ccc2c(c1)CN(C(=O)CCN1CCC(Cc3ccccc3)CC1)CC[S@@+]2[O-]	telemetry	conscious dog	intravenous, 4 mg/kg, 2 h		diastolic blood pressure	74 ± 6 mmHg
CCc1cc(C(=O)NC)c2nccc(N3CCc4c(cc(Cn5ccnc5)cc4-c4cn(C)nc4C(F)(F)F)C3=O)c2c1		Sprague Dawley rat	oral, 50 mg/kg once daily, day 2, 7-day toxicology study		body weight	226 ± 8.2 g
N#Cc1ccc2c(c1)[C@H]1CCCN(C(=O)c3ccc4[nH]cnc4c3)[C@H]1C2		human	240 mg, day 15		minimum ACTH level	1.2 pmol/L
CC(C)(Sc1ccncc1-c1ccc(C#N)c2ccccc12)C(=O)O		human, urine	oral, 5 mg, with: febuxostat 10 mg		amount excreted in urine (0-24 h)	60.6 µg
CNC(=O)c1ccc(-c2cnc3ncc(Cc4ccc5ncccc5c4)n3n2)cc1F		healthy human subjects	oral, 200 mg, Insomnia, grade 3, all causality, with: itraconazole 200 mg/day		subjects with adverse event	0%
CN1CC(=O)N2[C@H](c3ccc4c(c3)OCO4)c3[nH]c4ccccc4c3C[C@@H]2C1=O		human plasma	400 ng/mL, 74 days, long-term storage -70 °C		accuracy	98.1%
COC(=O)C1=CO[C@@H](O[C@@H]2O[C@H](CO)[C@@H](O)[C@H](O)[C@H]2O)[C@@H]2C(CO)=CC[C@H]12	post-procedure stability	rat plasma	1000 ng/mL, 1 h, room temperature		accuracy	97.3%
CCn1cc(C(=O)N2CCOCC2)c(=O)c2cc(NC3Cc4ccccc4C3)cnc21		human overall, fed, plasma	oral, 900 mg twice daily, day 1, tablet, arithmetic mean		Cmax	4600 ng/mL
c1ccc2c(c1)-c1cccc3c1c-2cc1ccccc13		polyethylene-water partitioning	PAH compilation		literature range of log K	6 to 6.66 log units
CCOc1c([C@H](C)n2nc(C)c3c(N)ncnc32)cc(Cl)c(F)c1[C@@H]1CNC(=O)C1	measured: QTcF ≤ 450 ms	previously treated B-cell malignancy	oral, dose not given, baseline QTcF ≤450 ms, all doses		share of ECG observations	97.2%
C[C@H]1CN(C(=O)CC#N)[C@]12CCN(c1ncnc3[nH]ccc13)C2		healthy human	oral, 3 mg single		subjects with dry skin	12.5%
O=C(O)CCC(=O)O.[2H]C([2H])([2H])Oc1cc(C)c2[nH]ccc2c1CN1CC[C@@H](C2CC2)C[C@H]1c1ccc(C(=O)O)cc1		human, plasma	200 mg once daily, day 10, multiple ascending dose		Vss/F	102 L
C=CCN1CC(=O)N2[C@@H](Cc3ccc(O)cc3F)C(=O)N(Cc3cccc(N4CC(N5CCN(CC)CC5)C4)n3)C[C@@H]2N1C(=O)NCc1ccccc1		advanced solid tumour patients	oral, 30 mg twice daily, grade ≥3, dose-escalation		treatment-related vomiting	0%
NC(=O)c1cc(Oc2ccc(NC(=O)Nc3ccc(Cl)c(C(F)(F)F)c3)c(F)c2)cc[n+]1[O-]	short-term stability	mouse plasma	75 ng/mL, 8 h, room temperature		accuracy	112%
Cc1coc([C@H]2C[C@H]3[C@@H](CF)SC(N)=N[C@@]3(c3ccc(F)cc3F)CO2)n1		male 129/SVE mouse, brain	subcutaneous, 80 mg/kg, 14 h		brain concentration	52 nM
O=C(Nc1nc2cccc(-c3ccc(CN4CCS(=O)(=O)CC4)cc3)n2n1)C1CC1	measured: animal bite	rheumatoid arthritis patients	oral, 100 mg twice daily, 4 weeks		patients with TEAE	0%
O=C(Nc1cnccc1Cl)N1CCN(Cc2ccc3c(c2)OC(F)(F)O3)CC1	multiple ascending dose	young women	100 mg, treatment-emergent adverse events		abdominal pain incidence	0%
Cc1cc(NC2CCN(C(=O)OC3CCN(C(=O)/C=C/CN(C)C)C3)CC2)n2ncc(C(C)C)c2n1 (stereo not drawn)	Phase I dose escalation CTCAE v4.0, measured: ALT increased	patients with advanced solid tumours	dose not given, Total dosing any grade		patients with adverse event	17%
COc1cc(Nc2ncc3c(n2)-c2ccc(Cl)cc2C(c2c(F)cccc2OC)=NC3)ccc1C(=O)O	measured: Diarrhea, all grades	cancer patients, phase 1/2	oral, dose not given, with: pembrolizumab		patients with adverse event	17%

A few entries again:
SMILES	test	test system	conditions	how to read	measurement	result
CCC(=O)N(CCC(c1ccc2c(c1)OCO2)c1ccccc1OC)Cc1ccccc1 (stereo not drawn)		female athymic nude mouse, blood	i.p., 60 mg/kg twice daily, 14 days, group mean		ALP	99 U/L
Cc1ccc([C@@H]2O[C@H](CO)[C@@H](O)[C@H](O)[C@H]2O)cc1Cc1ccc(-c2ccc(F)cc2)s1	measured: inorganic phosphorus	Japanese type 2 diabetes patients	200 mg, day 15, 24 h urine collection	relative to: baseline	urinary phosphate excretion change	18.1 mg
C=CC(=O)NC1CCN(c2ncc3ncnc(Nc4ccc(Oc5ccc6c(c5)ncn6C)c(C)c4)c3n2)CC1		human, male	oral, 240 mg, treatment-related adverse event		participants with fatigue	6.3%
CN(C(=O)n1cnc(-c2cccnc2)c1)C1CCCCC1		Wistar rat, medulla oblongata	oral, 10 mg/kg/day of BIA 10-2474, 72 h, repeated 5 days		concentration	7.2 ± 0.1 ng/g
NC1(C(=O)N[C@@H](CCO)c2ccc(Cl)cc2)CCN(c2nc[nH]c3nccc2-3)CC1		metastatic CRPC patients	320 mg b.i.d., any grade, treatment-related, with: enzalutamide 160 mg daily		incidence of lower abdominal pain	0%
C[C@@H](c1ncncc1F)[C@](O)(Cn1cncn1)c1ccc(F)cc1F	measured: blurred vision	human	oral, 200 mg		drug-related TEAE incidence	0%
N#C[C@@]1(c2ccc3c(N)ncnn23)O[C@H](CO)[C@@H](O)[C@H]1O	plasma protein binding	rat plasma	100 µM, time not given		recovery	97.4%
